Results from different studies.
Each numbered part is a random draw from the data of one study; scales do not carry over between parts.
Sequence of UniProt P21728 (whole entry, looked up): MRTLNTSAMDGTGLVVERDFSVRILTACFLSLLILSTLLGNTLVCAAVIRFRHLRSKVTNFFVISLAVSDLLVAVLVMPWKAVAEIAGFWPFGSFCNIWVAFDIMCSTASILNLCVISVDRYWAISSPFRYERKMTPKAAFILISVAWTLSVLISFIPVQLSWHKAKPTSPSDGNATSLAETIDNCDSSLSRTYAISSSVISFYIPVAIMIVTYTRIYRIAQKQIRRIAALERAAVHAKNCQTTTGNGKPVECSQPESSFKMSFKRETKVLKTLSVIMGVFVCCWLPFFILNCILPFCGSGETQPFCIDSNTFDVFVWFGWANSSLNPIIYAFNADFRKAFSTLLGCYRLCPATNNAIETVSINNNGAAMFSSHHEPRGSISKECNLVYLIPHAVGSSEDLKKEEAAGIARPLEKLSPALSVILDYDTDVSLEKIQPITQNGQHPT
Sequence of UniProt P08172 (whole entry, looked up): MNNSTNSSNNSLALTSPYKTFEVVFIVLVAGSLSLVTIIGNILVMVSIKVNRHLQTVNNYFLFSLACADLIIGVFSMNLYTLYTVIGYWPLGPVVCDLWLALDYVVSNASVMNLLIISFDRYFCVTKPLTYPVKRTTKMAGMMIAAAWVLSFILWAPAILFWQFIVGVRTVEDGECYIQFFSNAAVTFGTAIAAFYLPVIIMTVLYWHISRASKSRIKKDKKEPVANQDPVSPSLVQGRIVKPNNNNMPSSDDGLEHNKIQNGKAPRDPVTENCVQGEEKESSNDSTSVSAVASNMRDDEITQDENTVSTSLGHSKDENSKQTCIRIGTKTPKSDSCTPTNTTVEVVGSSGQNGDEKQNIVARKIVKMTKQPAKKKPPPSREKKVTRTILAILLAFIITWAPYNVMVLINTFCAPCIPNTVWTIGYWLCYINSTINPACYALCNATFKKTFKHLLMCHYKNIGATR
Sequence of UniProt P35348 (whole entry, looked up): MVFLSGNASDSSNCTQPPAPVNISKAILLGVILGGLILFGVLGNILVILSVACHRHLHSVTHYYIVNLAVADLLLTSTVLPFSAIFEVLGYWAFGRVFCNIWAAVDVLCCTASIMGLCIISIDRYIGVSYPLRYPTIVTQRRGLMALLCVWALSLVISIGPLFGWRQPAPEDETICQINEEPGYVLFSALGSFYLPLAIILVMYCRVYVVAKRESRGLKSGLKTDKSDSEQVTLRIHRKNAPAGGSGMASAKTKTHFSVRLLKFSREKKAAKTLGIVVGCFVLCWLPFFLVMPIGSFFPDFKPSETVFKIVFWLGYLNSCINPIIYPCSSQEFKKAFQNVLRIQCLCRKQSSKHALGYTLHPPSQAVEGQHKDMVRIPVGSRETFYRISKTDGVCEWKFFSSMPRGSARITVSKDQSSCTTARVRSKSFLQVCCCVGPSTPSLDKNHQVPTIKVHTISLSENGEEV
Sequence of UniProt P21917 (whole entry, looked up): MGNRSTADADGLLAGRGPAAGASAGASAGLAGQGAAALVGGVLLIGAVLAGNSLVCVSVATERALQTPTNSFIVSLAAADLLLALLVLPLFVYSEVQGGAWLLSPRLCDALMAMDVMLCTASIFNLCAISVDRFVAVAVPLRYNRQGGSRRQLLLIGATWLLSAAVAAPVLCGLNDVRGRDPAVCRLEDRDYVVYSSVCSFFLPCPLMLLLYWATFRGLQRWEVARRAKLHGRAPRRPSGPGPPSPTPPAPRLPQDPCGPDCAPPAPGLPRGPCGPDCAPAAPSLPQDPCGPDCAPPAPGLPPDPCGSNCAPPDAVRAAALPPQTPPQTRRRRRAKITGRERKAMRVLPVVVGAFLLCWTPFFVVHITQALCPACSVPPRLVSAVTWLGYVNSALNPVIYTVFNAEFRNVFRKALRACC
Sequence of UniProt P18089 (whole entry, looked up): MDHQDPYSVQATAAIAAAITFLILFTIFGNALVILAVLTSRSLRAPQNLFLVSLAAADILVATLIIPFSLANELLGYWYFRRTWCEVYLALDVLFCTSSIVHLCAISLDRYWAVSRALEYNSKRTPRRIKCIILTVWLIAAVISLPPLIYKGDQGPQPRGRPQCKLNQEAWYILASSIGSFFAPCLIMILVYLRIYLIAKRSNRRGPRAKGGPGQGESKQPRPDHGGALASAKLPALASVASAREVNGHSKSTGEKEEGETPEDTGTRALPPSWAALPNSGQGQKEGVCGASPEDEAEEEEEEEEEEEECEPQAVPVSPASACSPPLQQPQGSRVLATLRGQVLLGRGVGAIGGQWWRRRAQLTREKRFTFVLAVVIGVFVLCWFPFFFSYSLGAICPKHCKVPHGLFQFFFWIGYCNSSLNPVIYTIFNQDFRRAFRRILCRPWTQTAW
Sequence of UniProt Q9Y5N1 (whole entry, looked up): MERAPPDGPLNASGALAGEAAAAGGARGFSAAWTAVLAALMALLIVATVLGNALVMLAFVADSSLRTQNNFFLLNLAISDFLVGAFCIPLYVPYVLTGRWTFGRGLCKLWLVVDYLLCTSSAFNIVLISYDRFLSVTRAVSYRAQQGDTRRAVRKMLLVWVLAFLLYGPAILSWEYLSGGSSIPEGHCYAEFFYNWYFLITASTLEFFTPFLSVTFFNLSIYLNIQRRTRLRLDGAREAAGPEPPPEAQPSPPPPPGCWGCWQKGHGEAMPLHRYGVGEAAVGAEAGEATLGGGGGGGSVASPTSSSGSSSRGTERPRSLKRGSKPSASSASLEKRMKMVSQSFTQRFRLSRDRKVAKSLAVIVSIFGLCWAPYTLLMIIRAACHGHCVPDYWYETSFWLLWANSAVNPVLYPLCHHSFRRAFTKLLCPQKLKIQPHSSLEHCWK
Sequence of UniProt P07550 (whole entry, looked up): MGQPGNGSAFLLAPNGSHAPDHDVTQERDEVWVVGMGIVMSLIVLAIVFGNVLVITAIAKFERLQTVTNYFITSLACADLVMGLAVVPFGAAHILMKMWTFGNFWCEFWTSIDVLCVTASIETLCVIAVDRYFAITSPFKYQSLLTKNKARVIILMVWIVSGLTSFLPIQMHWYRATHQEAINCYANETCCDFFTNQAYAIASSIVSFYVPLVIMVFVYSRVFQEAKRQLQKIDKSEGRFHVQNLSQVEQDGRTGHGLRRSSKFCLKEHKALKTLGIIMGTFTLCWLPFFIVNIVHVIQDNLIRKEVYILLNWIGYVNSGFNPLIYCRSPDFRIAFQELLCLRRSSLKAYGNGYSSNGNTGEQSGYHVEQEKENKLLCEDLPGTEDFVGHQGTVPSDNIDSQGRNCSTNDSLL
Sequence of UniProt P18825 (whole entry, looked up): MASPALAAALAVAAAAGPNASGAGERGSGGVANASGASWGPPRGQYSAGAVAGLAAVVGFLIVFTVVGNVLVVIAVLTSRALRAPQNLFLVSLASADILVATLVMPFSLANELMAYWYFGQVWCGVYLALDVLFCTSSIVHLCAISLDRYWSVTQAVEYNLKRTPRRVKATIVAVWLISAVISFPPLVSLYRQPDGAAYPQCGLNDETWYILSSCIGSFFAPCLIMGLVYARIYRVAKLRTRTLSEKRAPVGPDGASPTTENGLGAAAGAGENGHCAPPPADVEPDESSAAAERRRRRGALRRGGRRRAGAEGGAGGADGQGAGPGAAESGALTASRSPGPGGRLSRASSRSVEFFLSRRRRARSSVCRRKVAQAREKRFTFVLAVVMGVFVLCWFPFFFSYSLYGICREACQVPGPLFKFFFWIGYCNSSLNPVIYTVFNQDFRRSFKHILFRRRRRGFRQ
Sequence of UniProt P13945 (whole entry, looked up): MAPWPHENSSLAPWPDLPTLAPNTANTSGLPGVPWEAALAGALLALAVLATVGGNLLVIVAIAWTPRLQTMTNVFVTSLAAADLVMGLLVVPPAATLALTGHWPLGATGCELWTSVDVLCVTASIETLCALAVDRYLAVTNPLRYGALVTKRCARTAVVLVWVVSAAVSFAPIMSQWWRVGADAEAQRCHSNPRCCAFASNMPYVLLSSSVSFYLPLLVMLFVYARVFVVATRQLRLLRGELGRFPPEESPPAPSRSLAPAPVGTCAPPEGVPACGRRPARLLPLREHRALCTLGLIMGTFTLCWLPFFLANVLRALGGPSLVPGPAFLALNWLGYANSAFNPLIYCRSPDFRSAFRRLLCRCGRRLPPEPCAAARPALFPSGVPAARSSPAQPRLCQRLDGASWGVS

Sample 1 — action: inhibitor; concentration: 10 µM; reference: control; quantity: remaining activity
Target: Diamine acetyltransferase 1 (Homo sapiens, UniProt P21673)
Residues (P21673 1-171): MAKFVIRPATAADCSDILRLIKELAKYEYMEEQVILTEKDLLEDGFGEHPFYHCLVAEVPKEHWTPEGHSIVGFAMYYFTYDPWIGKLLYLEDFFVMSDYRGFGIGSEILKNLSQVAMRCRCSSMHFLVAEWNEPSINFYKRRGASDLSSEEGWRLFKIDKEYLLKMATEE
CCCCCCCC/C=C\CCCCCCCC(=O)O: 90.9%
C/C=C/c1ccc(O)c(OC)c1: 125%
Oc1ccc(/C=C/c2cc(O)cc(O)c2)cc1: 104%
CC1(C)[C@@H]2CC[C@@]1(C)[C@@H](O)C2: 98.4%
COc1ccc(-c2coc3cc(O)ccc3c2=O)cc1O: 130%
COc1c(O)cc2oc(-c3ccccc3)cc(=O)c2c1O: 96.7%
CCCCCCCC/C=C\CCCCCCCC(=O)OCC(O)CO (stereo not shown): 92.6%
Oc1ccc2c(c1)OCO2: 98.3%
COc1cc2c(c(OC)c1OC)-c1ccc(OC)c(=O)cc1[C@@H](NC(C)=O)CC2: 85.8%
CCCCCCCCCC(=O)O: 98.3%
CC(C)[C@@H]1CC[C@@H](C)CC1=O: 82.8%
CCCCCCCCCCCCCCCCCCCCCCCCCCCC(=O)O: 89.4%

Sample 2 — effect on: cell-free assay; concentration: 10 µM; quantity: inhibition
Compound: NS(=O)(=O)c1cc(NC(=O)C2(c3ccccc3Cl)CC2)ccc1Oc1cccc(Cl)c1
Histamine H4 receptor (HRH4, Homo sapiens, UniProt Q9H3N8): 0.09%
Sigma non-opioid intracellular receptor 1 (SIGMAR1, Homo sapiens, UniProt Q99720): 18.6%
Alpha-1D adrenergic receptor (ADRA1D, Homo sapiens, UniProt P25100): 6.88%
Alpha-2C adrenergic receptor (ADRA2C, Homo sapiens, UniProt P18825): 89.6%
Muscarinic acetylcholine receptor M5 (CHRM5, Homo sapiens, UniProt P08912): 14.7%
Alpha-2B adrenergic receptor (ADRA2B, Homo sapiens, UniProt P18089): 43.4%
Beta-3 adrenergic receptor (ADRB3, Homo sapiens, UniProt P13945): -5.77%
Muscarinic acetylcholine receptor M4 (CHRM4, Homo sapiens, UniProt P08173): -1.95%
Histamine H2 receptor (HRH2, Homo sapiens, UniProt P25021): 11.5%
Muscarinic acetylcholine receptor M2 (CHRM2, Homo sapiens, UniProt P08172): 2.03%
Histamine H1 receptor (HRH1, Homo sapiens, UniProt P35367): 17.9%
5-hydroxytryptamine receptor 7 (HTR7, Homo sapiens, UniProt P34969): 17.3%
Alpha-1A adrenergic receptor (ADRA1A, Homo sapiens, UniProt P35348): 15.1%
D(4) dopamine receptor (DRD4, Homo sapiens, UniProt P21917): 27%
D(2) dopamine receptor (DRD2, Homo sapiens, UniProt P14416): -9.74%
Histamine H3 receptor (HRH3, Homo sapiens, UniProt Q9Y5N1): 3.87%
5-hydroxytryptamine receptor 6 (HTR6, Homo sapiens, UniProt P50406): -4.73%
Sigma intracellular receptor 2 (TMEM97, Homo sapiens, UniProt Q5BJF2): 82%
Beta-2 adrenergic receptor (ADRB2, Homo sapiens, UniProt P07550): -10.7%
D(1A) dopamine receptor (DRD1, Homo sapiens, UniProt P21728): 3.57%

Sample 3 — effect on: enzyme activity; action: inhibitor; concentration: 0.5 µM; reference: control; quantity: remaining activity
Target: Ephrin type-B receptor 3 (EPHB3, Homo sapiens, UniProt P54753)
Sequence of UniProt P54753 (whole entry, looked up): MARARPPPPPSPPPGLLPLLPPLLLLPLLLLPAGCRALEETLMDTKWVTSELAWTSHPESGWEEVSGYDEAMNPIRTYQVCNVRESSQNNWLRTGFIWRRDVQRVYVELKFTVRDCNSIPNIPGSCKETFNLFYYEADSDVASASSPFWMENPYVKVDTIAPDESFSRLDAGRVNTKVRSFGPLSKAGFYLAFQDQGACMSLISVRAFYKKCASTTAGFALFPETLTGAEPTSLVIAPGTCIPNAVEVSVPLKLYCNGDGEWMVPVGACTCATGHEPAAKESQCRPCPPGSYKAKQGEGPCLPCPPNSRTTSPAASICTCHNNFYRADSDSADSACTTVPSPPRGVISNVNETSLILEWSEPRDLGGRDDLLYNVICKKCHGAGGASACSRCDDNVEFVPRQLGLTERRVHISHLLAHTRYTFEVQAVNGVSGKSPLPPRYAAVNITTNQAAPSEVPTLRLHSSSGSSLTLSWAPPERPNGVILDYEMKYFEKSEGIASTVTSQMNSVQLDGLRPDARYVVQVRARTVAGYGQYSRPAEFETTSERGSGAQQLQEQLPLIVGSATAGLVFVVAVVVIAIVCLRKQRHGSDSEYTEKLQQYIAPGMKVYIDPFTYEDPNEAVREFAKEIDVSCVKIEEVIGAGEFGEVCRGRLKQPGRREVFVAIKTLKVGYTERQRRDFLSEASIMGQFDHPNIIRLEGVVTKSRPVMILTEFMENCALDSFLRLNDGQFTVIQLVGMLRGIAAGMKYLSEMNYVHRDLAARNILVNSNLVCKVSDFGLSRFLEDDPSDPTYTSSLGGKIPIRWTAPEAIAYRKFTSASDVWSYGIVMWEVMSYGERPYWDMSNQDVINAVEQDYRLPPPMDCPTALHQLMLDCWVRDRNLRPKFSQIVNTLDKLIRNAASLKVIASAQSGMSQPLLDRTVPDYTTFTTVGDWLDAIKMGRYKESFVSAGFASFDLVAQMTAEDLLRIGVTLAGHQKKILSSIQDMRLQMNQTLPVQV
CCCNC(=O)Nc1ccc(Oc2ncnc3cc(OC)c(OC)cc23)cc1Cl: 93.7%
O=C(c1cc2cc(O)ccc2[nH]1)c1cc2cc(O)ccc2[nH]1: 92.3%
c1ccc2c(-c3ccncc3)c[nH]c2c1: 100%
CN(C)S(=O)(=O)c1ccc2c(c1)/C(=C/c1cc3c([nH]1)CCCC3)C(=O)N2: 105%
Cc1cc(Nc2cc(N3CCN(C)CC3)nc(Sc3ccc(NC(=O)C4CC4)cc3)n2)[nH]n1: 62.2%
O=C1Nc2ccc(Br)cc2/C1=C/c1cc2c([nH]1)CCCC2: 99.7%
O=C1NC(=O)c2c1c1c3ccccc3[nH]c1n1cncc21: 79.7%
O=C1NC(=O)c2c1c1c3ccccc3[nH]c1c1[nH]c3cc(Br)ccc3c21: 91.9%
O=C1Cc2c([nH]c3ccc(Br)cc23)-c2ccccc2N1: 92.3%
COc1ccc2c(c1)c(C1=C(c3c[nH]c4ccccc34)C(=O)NC1=O)cn2CCCN(C)C: 97%
CCCCc1c(-c2ccc(OC)cc2)[nH]c2nccnc12: 99.8%
O=C1Nc2ccccc2/C1=C\c1c(Cl)[nH]c2ccccc12: 91.3%
Cc1ccc(S(=O)(=O)/C=C/C#N)cc1: 104%
O=c1cc(N2CCOCC2)oc2c(-c3ccccc3)cccc12: 94.6%
COc1ccc(COc2ccc(Cc3cnc(N)nc3N)cc2OC)cc1: 91.8%
O=Nc1c(-c2c(O)[nH]c3cc(Br)ccc23)[nH]c2ccccc12: 103%
COc1cccc(-c2cc(=O)c3ccccc3o2)c1N: 91.9%
c1ccc(-c2n[nH]c3c2oc2ccccc23)cc1: 84.7%
N#Cc1cnc2cnc(NCc3cccnc3)cc2c1Nc1ccc(F)c(Cl)c1: 98.5%

Sample 4 — host: human; matrix: microsomes or S9; concentration: 2 µM; time: 0.5 h; quantity: remaining compound
Fc1ccc(Cn2nnc3c2ncn2cnnc32)cc1: 60.4%
CC(C(=O)Nc1ccc2c(c1)CCC2)n1nc(-c2ccc3c(c2)OCCO3)ccc1=O (stereo not shown): 13.1%
NS(=O)(=O)c1ccc(Nc2ccc3cc(S(=O)(=O)N4CCCCC4)ccc3n2)cc1: 1.87%
COc1cc(=O)n2c(c1C(=O)Nc1cccc(F)c1C)CCCC2: 58%
O=C(C1CCC1)N(C1CCCCC1)C1CCCCC1: 3.27%
O=C(O)C1CC[C@@H](c2ccccc2)N1C(=O)C1CCCS1(=O)=O (stereo partly shown): > 100%
Cn1c(Cn2cc(-c3nnco3)ccc2=O)nc2cc(Cl)ccc21: 97.9%
CN(Cc1ccccc1)Cc1cc(=O)n2nc(-c3ccc(C(C)(C)C)cc3)nc2[nH]1: 41.3%
CS(=O)(=O)n1c(-c2ccccc2)c(C#Cc2ccccc2)c2ccccc21: > 99%
COc1ccc2c(c1OC)C(=O)OC2c1c(O)cc(C)n(Cc2ccccn2)c1=O (stereo not shown): > 100%

Repeated from above (sample 1):
CCCCCCCC/C=C\CCCCCCCC(=O)OCC(O)CO (stereo not shown): 92.6%
COc1cc2c(c(OC)c1OC)-c1ccc(OC)c(=O)cc1[C@@H](NC(C)=O)CC2: 85.8%
Oc1ccc2c(c1)OCO2: 98.3%
COc1c(O)cc2oc(-c3ccccc3)cc(=O)c2c1O: 96.7%
CC(C)[C@@H]1CC[C@@H](C)CC1=O: 82.8%
CCCCCCCC/C=C\CCCCCCCC(=O)O: 90.9%
